# Published values gathered from unrelated publications.
# Lines come from different studies, so protocols differ. ± marks the error that the study gave.
# B1: designed binder (Homo sapiens); chain APTSSSTKKTQLQLEHLLLDLQMILNGINNYKNPKLTRMLTFKFYMPKKATELKHLQCLEEELKPLEEVLNLAQSKNFHFDPRDVVSNINVFVLELKGSETTFMCEYADETATIVEFLNRWITFCQSIISTLT
# B2: Cacna1c 1647-1777 (Mus musculus, UniProt Q01815); sequence looked up; chain NALSLQAGLRTLHDIGPEIRRAISGDLTAEEELDKAMKEAVSAASEDDIFRRAGGLFGNHVTYYQSDSRGNFPQTFATQRPLHINKTGNNQADTESPSHEKLVDSTFTPSSYSSTGSNANINNANNTALGR
# B3: RAP1A 1-166 (Homo sapiens, UniProt P62834); sequence looked up; chain MREYKLVVLGSGGVGKSALTVQFVQGIFVEKYDPTIEDSYRKQVEVDCQQCMLEILDTAGTEQFTAMRDLYMKNGQGFALVYSITAQSTFNDLQDLREQILRVKDTEDVPMILVGNKCDLEDERVVGKEQGQNLARQWCNCAFLESSAKSKINVNEIFYDLVRQIN
# Sequence of UniProt Q8TCU6 (whole entry, looked up): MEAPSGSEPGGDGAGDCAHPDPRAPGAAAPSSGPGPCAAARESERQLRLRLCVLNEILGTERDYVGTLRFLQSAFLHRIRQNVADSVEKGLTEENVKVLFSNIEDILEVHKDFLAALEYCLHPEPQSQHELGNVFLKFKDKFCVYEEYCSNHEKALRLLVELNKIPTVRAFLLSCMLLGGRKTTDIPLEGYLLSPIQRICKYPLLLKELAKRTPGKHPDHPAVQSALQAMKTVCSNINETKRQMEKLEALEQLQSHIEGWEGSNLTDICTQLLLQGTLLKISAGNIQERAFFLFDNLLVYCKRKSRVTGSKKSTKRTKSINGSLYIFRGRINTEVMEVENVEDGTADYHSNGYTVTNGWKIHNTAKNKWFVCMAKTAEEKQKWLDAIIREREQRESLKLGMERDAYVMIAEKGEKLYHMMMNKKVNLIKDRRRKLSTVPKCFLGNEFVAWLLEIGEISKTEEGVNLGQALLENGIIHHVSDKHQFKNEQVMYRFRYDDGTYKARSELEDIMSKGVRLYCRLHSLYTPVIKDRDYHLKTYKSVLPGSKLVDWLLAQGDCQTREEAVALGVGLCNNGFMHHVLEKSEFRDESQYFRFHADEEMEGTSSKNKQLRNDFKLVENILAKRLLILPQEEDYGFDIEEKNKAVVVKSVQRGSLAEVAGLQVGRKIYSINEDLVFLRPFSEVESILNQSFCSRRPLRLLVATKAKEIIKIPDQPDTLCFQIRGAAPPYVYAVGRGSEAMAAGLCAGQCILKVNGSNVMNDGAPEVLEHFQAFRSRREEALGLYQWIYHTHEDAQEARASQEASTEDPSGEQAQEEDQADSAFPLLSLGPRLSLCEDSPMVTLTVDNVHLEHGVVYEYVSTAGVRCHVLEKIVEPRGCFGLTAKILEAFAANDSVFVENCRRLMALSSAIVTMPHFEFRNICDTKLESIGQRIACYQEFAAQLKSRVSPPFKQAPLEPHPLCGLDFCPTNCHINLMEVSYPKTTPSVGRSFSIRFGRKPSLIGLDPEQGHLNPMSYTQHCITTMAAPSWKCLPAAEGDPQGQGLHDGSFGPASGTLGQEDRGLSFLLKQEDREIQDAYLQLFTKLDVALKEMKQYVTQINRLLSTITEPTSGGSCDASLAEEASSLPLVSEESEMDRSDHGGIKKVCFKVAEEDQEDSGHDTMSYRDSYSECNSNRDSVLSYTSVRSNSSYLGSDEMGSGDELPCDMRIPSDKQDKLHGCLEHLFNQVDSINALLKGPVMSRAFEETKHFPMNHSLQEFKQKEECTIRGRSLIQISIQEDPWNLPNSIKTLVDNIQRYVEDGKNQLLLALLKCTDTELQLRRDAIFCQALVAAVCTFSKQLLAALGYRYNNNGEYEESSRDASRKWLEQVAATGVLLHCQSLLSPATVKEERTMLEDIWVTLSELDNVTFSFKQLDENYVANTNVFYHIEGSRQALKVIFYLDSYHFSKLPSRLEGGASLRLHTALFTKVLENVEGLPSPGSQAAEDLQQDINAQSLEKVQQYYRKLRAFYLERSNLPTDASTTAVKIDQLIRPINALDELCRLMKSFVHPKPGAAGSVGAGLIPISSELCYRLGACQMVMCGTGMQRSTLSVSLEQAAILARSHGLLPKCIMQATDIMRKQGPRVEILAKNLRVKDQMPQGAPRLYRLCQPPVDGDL
# Sequence of UniProt Q92793 (whole entry, looked up): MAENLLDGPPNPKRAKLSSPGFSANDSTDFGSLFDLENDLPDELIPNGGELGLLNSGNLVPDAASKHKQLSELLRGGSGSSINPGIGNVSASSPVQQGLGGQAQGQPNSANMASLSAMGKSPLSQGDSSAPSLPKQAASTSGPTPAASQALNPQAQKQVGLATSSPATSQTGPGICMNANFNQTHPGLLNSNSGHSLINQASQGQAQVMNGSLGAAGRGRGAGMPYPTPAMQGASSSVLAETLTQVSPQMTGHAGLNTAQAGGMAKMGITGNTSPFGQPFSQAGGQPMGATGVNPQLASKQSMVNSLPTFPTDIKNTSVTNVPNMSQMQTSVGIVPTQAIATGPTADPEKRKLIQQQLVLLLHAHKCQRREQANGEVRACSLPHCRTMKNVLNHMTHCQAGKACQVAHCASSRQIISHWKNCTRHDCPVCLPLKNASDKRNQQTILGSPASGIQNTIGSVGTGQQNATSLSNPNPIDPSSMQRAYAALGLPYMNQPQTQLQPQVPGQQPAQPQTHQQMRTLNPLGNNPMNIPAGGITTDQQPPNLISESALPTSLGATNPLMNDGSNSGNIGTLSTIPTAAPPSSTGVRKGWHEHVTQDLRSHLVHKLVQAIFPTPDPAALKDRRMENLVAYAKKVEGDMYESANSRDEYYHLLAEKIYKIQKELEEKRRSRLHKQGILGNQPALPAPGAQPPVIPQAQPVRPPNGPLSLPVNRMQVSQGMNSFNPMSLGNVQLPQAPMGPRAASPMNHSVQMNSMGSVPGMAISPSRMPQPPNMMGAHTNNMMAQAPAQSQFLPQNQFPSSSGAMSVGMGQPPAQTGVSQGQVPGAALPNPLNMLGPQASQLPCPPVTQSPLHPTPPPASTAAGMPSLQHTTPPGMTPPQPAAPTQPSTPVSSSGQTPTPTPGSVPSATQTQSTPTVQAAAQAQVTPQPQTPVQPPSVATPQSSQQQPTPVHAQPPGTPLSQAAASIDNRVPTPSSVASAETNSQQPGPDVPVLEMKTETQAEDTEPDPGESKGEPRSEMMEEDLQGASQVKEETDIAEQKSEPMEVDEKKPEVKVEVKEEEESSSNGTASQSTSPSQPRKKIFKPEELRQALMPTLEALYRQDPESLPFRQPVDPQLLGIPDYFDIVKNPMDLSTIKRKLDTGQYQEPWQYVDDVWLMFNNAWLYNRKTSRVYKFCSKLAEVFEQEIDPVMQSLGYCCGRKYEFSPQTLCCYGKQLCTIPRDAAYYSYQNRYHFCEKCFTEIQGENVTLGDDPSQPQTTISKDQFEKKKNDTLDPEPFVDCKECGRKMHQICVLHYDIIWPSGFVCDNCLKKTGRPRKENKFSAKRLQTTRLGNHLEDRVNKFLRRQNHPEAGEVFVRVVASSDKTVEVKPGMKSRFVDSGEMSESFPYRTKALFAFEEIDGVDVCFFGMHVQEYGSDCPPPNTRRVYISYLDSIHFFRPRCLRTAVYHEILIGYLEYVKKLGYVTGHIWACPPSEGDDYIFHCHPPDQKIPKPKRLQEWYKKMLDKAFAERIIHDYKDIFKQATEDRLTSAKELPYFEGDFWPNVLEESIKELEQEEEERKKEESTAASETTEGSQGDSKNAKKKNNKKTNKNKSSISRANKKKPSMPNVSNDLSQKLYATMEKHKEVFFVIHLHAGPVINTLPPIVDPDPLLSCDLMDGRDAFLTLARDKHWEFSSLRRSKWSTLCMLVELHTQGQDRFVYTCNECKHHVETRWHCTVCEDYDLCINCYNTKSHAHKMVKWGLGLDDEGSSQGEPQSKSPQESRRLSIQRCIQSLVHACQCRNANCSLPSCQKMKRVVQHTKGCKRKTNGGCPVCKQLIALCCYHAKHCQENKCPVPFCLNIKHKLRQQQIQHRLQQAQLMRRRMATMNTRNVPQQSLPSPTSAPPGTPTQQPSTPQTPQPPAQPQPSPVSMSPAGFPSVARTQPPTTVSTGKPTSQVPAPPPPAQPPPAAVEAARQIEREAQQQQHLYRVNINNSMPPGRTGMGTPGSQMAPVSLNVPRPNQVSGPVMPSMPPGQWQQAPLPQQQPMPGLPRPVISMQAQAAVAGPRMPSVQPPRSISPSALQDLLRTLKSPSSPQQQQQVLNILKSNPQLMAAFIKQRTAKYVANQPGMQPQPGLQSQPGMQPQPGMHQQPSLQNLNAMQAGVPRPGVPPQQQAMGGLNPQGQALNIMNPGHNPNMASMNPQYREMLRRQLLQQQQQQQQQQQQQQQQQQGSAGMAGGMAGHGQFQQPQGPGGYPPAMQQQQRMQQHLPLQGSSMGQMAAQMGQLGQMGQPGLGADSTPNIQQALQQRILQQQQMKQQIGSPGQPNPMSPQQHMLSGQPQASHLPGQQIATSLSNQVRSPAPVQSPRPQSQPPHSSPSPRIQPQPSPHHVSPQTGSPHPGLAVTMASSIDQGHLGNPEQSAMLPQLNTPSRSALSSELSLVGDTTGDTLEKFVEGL
# Sequence of UniProt P27986 (whole entry, unmodified, looked up): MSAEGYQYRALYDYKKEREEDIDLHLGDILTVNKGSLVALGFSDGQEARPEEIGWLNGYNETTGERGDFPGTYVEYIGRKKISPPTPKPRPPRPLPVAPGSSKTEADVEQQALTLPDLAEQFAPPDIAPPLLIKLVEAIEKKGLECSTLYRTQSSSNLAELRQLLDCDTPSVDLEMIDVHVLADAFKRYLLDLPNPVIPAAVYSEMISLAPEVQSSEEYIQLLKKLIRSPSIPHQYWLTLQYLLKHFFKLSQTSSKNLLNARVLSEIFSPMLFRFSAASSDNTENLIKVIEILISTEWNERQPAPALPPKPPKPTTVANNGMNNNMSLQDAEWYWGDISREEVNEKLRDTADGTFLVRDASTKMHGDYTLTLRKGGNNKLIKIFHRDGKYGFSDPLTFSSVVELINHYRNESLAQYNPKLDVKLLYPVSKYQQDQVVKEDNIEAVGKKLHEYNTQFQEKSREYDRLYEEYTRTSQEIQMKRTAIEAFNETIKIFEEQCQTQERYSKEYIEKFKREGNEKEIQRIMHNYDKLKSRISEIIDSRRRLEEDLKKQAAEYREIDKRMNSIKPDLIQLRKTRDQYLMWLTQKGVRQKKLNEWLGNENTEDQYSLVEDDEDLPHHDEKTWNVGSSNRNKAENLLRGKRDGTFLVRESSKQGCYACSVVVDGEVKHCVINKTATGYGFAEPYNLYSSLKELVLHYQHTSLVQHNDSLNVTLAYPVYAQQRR
# Sequence of UniProt P01589 (whole entry, looked up): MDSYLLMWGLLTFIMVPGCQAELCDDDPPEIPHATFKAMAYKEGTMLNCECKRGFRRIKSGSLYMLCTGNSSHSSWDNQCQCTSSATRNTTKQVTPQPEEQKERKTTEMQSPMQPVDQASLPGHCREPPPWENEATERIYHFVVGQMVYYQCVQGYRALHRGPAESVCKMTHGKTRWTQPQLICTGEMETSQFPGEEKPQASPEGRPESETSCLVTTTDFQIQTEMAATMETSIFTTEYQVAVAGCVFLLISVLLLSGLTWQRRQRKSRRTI
Substance,target or system,assay,system,conditions,measurement,value
QLMPFGSLL,"HLA class I histocompatibility antigen, A alpha chain, allele A*02:01 (Homo sapiens, UniProt P04439)","complex stability, off-rate",peptide,37 °C,half-life of peptide-HLA complex,85.7 h
ENAH EVH1 domain (Homo sapiens),FLNC peptide (Homo sapiens),BLI,,,Kd,> 150000 nM
B1 (designed binder),IL2RA (UniProt P01589),BLI,designed binder,,Kd,56 ± 9 nM
CALCOCO1 fragment (Homo sapiens) (sequence not shown),ARNT PAS-B domain (Homo sapiens),MST,,,Kd,80000 nM
"CREBBP KIX domain (Homo sapiens, UniProt Q92793)","CREB fragment, pSer133, FITC label (Homo sapiens)",fluorescence polarization,,,Kd,410 nM
SCN2A fragment Q1913A (Homo sapiens) (sequence not shown),"CALM1 (Homo sapiens, UniProt P0DP23)",fluorescence titration,,"pH 7.4, 22 °C, added: calcium",Kd,75 nM
"SSECQRHLYSILCCKESSDPNSCNSTGQLMPSKMDTCSSHLNNSIYKKLLA (F2r 380-430 (Mus musculus, UniProt P30558); sequence looked up)","MYH9 1-776 (Homo sapiens, UniProt P35579)",SPR,,25 °C,Kd,242 nM
"PSPHGTRRHLPSPP (SOS1 proline-rich peptide, 1264-1277)","GRB2 1-58 (Homo sapiens, UniProt P62993)",NMR titration,peptide,,Kd,208000 nM
"Diaph1 (Mus musculus, UniProt O08808)","ACTA1/Capza1/Capzb CP-capped barbed end filament, Alexa-488 label (Oryctolagus cuniculus/Mus musculus)","CP detachment from filament, mf-TIRF",,"apparent, hyperbolic fit, ADP-actin",Kd,159 nM
"LRG1 (Homo sapiens, UniProt P02750)","ERBB3 20-643 (Homo sapiens, UniProt P21860)",BLI,,,Kd,149 nM
GGYMDMSKDESVDYVPML (PDGFRB residues 738-755; pY (two phosphotyrosines)),"PIK3R1 80-724 (Homo sapiens, UniProt P27986)",ITC,peptide,,Kd,660 ± 50 nM
B2 (Cacna1c 1647-1777),"Jph2 1-440 S165E (Mus musculus, UniProt Q9ET78)",ITC,,,Kd,5460 nM
B3 (RAP1A 1-166),"PREX1 (Homo sapiens, UniProt Q8TCU6)",fluorescence titration,,added: mant-GDP 1 µM,Kd,89000 ± 6000 nM
